Values quoted from earlier work, collected from citations in different studies.
Protocols differ between the studies behind these lines. Numbers after ± are the reported error.
SIRT3: NAD-dependent protein deacetylase sirtuin-3, mitochondrial (SIRT3, Homo sapiens, UniProt Q9NTG7)
Si: Sucrase-isomaltase, intestinal (Si, Rattus norvegicus, UniProt P23739)
KDR: Vascular endothelial growth factor receptor 2 (KDR, Homo sapiens, UniProt P35968)
Midkine: Midkine (Homo sapiens, UniProt P21741)

Structure (SMILES) | tested on | assay | system | conditions | endpoint | result
CC1=NN(c2cccc(C(=O)O)c2)C(=O)C1=Cc1ccc(-c2ccc(Cl)c(C(=O)O)c2)o1 | X-ray repair cross-complementing protein 6/X-ray repair cross-complementing protein 5 (Homo sapiens, UniProt P12956+P13010) | DNA binding, EMSA | – | – | IC50 | 75 µM
Fc1ccc(Nc2nc(-c3ccc(Cl)cc3)nc3ccc(Br)cc23)cc1 | EGFR (Homo sapiens, UniProt P00533) | – | – | – | IC50 | 0.0377 µM
O=C(O)[C@@H]1[C@@H](O)[C@H](O)[C@@H](O)[C@@H]2O[C@@H]21 | Heparanase (HPSE, Homo sapiens, UniProt Q9Y251) | inhibitor, competitive ABPP | – | – | IC50 | > 100 µM
Cc1ccccc1-c1cc(N2CCNCC2)ncc1N(C)C(=O)C(C)(C)c1cc(C(F)(F)F)cc(C(F)(F)F)c1 | – | – | cancer patients, plasma | oral, dose not given, netupitant-palonosetron fixed combination, together with: etoposide 35-100 mg/m^2 IV | AUC(0-inf) | 4200 ng·h/mL
CC(C)C[C@@H](NC(=O)[C@H](C)NC(=O)CNC(=O)[C@@H](NC=O)C(C)C)C(=O)N[C@@H](C)C(=O)N[C@@H](C(=O)N[C@H](C(=O)N[C@@H](C(=O)N[C@@H](Cc1c[nH]c2ccccc12)C(=O)N[C@H](CC(C)C)C(=O)N[C@@H](Cc1c[nH]c2ccccc12)C(=O)N[C@H](CC(C)C)C(=O)N[C@@H](Cc1c[nH]c2ccccc12)C(=O)N[C@H](CC(C)C)C(=O)N[C@@H](Cc1c[nH]c2ccccc12)C(=O)NCCO)C(C)C)C(C)C)C(C)C | Na+/K+-ATPase (mammalian) | enzyme activity, inhibitor | – | purified enzyme | IC50 | 8.1 µM
C[C@@H](OC(=O)Cc1ccc(Cl)c(SC2C(=O)CC(c3c(Cl)cccc3Cl)CC2=O)c1)c1ccccc1 (stereo partly shown) | LDHA (Homo sapiens, UniProt P00338) | enzyme activity, inhibitor | – | – | IC50 | 0.006 µM
C=CC(=O)N1CCC[C@@H](n2nc(-c3ccc4ccccc4c3)c3c(N)ncnc32)C1 | EGFR (Homo sapiens, UniProt P00533, L858R/T790M) | – | – | – | IC50 | < 0.001 µM
C#CCCCC1(CCC(=O)N[C@@H](CCCCNC(=S)CCC(=O)O)C(=O)N[C@@H](C)C(=O)N[C@@H](C)C(=O)OC)N=N1 | SIRT2 (Homo sapiens, UniProt Q8IXJ6) | enzyme activity, inhibitor | – | – | IC50 | > 5000 µM
CC1=C(C(=O)c2ccc([N+](=O)[O-])cc2)C(=O)c2ccccc2C1=O | GSR (Homo sapiens, UniProt P00390) | enzyme activity, inhibitor | – | – | IC50 | 0.4 µM
CCCCCCCCn1cc(O)c(=O)cc1/C=N/OCC | tyrosinase | monophenolase activity, inhibitor | – | – | IC50 | 1.6 µM
C[C@@H](c1cc(OCC(F)F)ccn1)n1cnc2c(N)nc(Cl)nc21 | PDE9A (Homo sapiens, UniProt O76083) | enzyme activity | – | – | IC50 | > 10 µM
COC(=O)[C@H](C)NC(=O)[C@H](C)NC(=O)[C@H](CCCCNC(C)=S)NC(=O)c1ccc(C(=O)c2ccc(OC/C=C/CN=[N+]=[N-])cc2)cc1 | SIRT3 | deacetylase activity, inhibitor, HPLC | – | together with: H3K9ac substrate | IC50 | 35.9 ± 5.82 µM
Cc1cc(N)nc(CC2CNCC2OCCNCC(F)(F)c2cccc(F)c2)c1 (racemic) | Nos1 (Rattus norvegicus, UniProt P29476) | – | HEK-293T expressing nNOS | – | IC50 | 19 µM
Cc1c(O)c(=O)ccn1-c1cccc(C(=O)N/N=C/c2ccco2)c1 | tyrosinase | enzyme activity, inhibitor | – | – | IC50 | 8.94 µM
CO[C@H]1[C@@H](O)[C@H]2O[C@@H]1COP(=O)([O-])OP(=O)(O)OC[C@H]1O[C@H]([C@H](O)[C@@H]1O)[n+]1cnc3c(ncn32)c1N | cADPR receptor, sea urchin | antagonist | sea urchin egg homogenate | – | IC50 | 4.8 µM
N#Cc1ccc(N(Cc2ccc(OS(N)(=O)=O)c(F)c2)n2cnnc2)cc1 | Aromatase (CYP19A1, Homo sapiens, UniProt P11511) | enzyme activity, inhibitor | JEG-3 | – | IC50 | 0.01 to 0.1 µM
Cc1ccc(-c2nc3c(C(=O)Nc4ccccc4)c(Nc4ccccc4)nn3c(-c3ccc(Br)cc3)c2N)cc1 | alpha-glucosidase | inhibitor | – | – | IC50 | 15.2 ± 0.4 µM
C[C@@H]1COCCN1c1nc(-c2cnc(N)nc2)nc2c1C[C@@H]1COCCN21 | Akt pSer473 | phosphorylation, inhibitor | A2058 | – | IC50 | 0.077 ± 0.0068 µM
Cc1ccccc1CO[C@@H](CO)[C@H](O)C[S@@+]1C[C@@H](O)[C@H](O)[C@H]1CO | Si | sucrase activity, inhibitor | rat intestinal disaccharidases | – | IC50 | 0.41 µM
COCCOCCOCCOCCC(=O)NCc1cc(CNC(=O)CCOCCOCCOCCOC)cc(-c2cc3cc4nc(c(OC)c5[nH]c(cc6nc(cc2[nH]3)CC6(C)C)cc5-c2cc(CNC(=O)CCOCCOCCOCCOC)cc(CNC(=O)CCOCCOCCOCCOC)c2)CC4(C)C)c1 | – | – | PBS | room temperature | Qy emission FWHM | 23 nm
C#CCOc1ccc(C(=O)c2ccc(C(=O)N[C@@H](CCCCNC(=S)CCCCCCCCCCCCC)C(=O)N[C@@H](C)C(=O)N[C@@H](C)C(=O)OC)cc2)cc1 | SIRT3 | deacetylase activity, inhibitor, HPLC | – | together with: H3K9ac substrate | IC50 | > 5000 µM
O=C1NC(=O)N(CCc2ccccc2)/C1=C/c1ccc(O)cc1 | EGFR | inhibitor | – | – | IC50 | 19 µM

Structure (SMILES) | tested on | assay | system | conditions | endpoint | result
CC1=C(Cn2c3cccc(=O)c-3nc3ccccc32)CCC(C)(C)C1 | testosterone 5α-reductase | inhibitor | – | – | IC50 | 0.5 µM
CC(C)C[C@@H](CN[C@@H](Cc1ccc(Cl)cc1)C(N)=O)NC(=O)[C@H](Cc1c[nH]cn1)NC(=O)CNC(=O)[C@@H](NC(=O)[C@H](C)NC(=O)[C@H](Cc1c[nH]c2ccccc12)NC(=O)[C@H](CCC(N)=O)NC(=O)[C@H](N)Cc1ccccc1)C(C)C | Gastrin-releasing peptide receptor (Rattus norvegicus, UniProt P52500) | binding | – | literature species comparison | IC50 | 0.041 ± 0.005 µM
O=C(CSC(=S)Nc1cccc([N+](=O)[O-])c1)c1cc2ccccc2oc1=O | alpha-glucosidase | – | – | – | IC50 | 102 ± 4.7 µM
O=[N+]([O-])c1ccccc1CO[C@@H](CO)[C@H](O)C[S@@+]1C[C@@H](O)[C@H](O)[C@H]1CO | Si | sucrase activity, inhibitor | rat intestinal disaccharidases | – | IC50 | 0.042 µM
COc1ccc(C2=C(C#N)C(OCC(=O)N/N=C/c3ccccc3)NC(c3nc4ccccc4[nH]3)=C2)cc1 (stereo not shown) | DNA gyrase | enzyme activity | – | – | IC50 | 0.44 µM
OC[C@H](OCc1ccccc1Cl)[C@H](O)C[S@@+]1C[C@@H](O)[C@H](O)[C@H]1CO | rat intestinal maltase | maltase activity, inhibitor | rat intestinal disaccharidases | – | IC50 | 0.31 µM
Clc1ccccc1C1Nc2ccc3ccccc3c2C2C=CCC21 (stereo not shown) | androgen receptor ligand-binding domain | binding | – | – | IC50 | 4 µM
COc1cc(C(C)C)c(Oc2cnc(N)nc2N)cc1I | P2X3 receptor | inhibitor | – | – | IC50 | 0.0099 ± 0.0011 µM
O=C(Cc1ccc(O)cc1)N/N=C1\C(=O)Nc2ccc(Cl)cc21 | c-Met kinase | – | – | – | IC50 | 0.007 µM
C/C(=N\Nc1ccccc1)c1ccc(NC(=O)c2cccnc2)cc1 | KDR | kinase activity, inhibitor | – | – | IC50 | 0.0249 µM
Cc1ccc(Nc2nnc(Cc3ccncc3)c3ccccc23)cc1Br | KDR | – | – | – | IC50 | 0.02 µM
CCCCOc1ccc(S(=O)(=O)N(Cc2ccc(N(CC(=O)OC)S(C)(=O)=O)cc2)c2ccc(CN(Cc3ccc(C)cc3)S(C)(=O)=O)cc2)cc1 | ESRRA (Homo sapiens, UniProt P11474) | – | – | – | IC50 | 1.47 µM
OC[C@H](OCc1ccccc1)[C@H](O)C[S@@+]1C[C@@H](O)[C@H](O)[C@H]1CO | Si | sucrase activity, inhibitor | rat intestinal disaccharidases | – | IC50 | 0.44 µM
O=C(Nc1ccc(OC(F)(F)F)cc1)N[C@H]1CC[C@H](Oc2ccc(C(=O)OCc3ccccc3)cc2)CC1 | Ephx2 (Rattus norvegicus, UniProt P80299) | enzyme activity, inhibitor | rat | – | IC50 | 0.054 µM
Cc1c(COc2cc(OCc3cncc(C#N)c3)c(CN(CCCN(C)C)CCS(=O)(=O)O)cc2Cl)cccc1-c1ccc2c(c1)OCCO2 | CD274 (Homo sapiens, UniProt Q9NZQ7) | – | – | – | IC50 | 0.001 µM
COc1cc2oc(=O)ccc2cc1-c1c(O)cc(O)c2c(=O)cc(-c3ccc(O)c(O)c3)oc12 | alpha-glucosidase | inhibitor | – | – | IC50 | 1.47 ± 0.07 µM
O=C(Nc1ccc(C(F)(F)F)cc1)Nc1cc(Br)cc(C(F)(F)F)c1 | MRGPRX2 (Homo sapiens, UniProt Q96LB1) | antagonist | – | – | IC50 | 0.62 µM
COc1ccc(O[C@@H]2O[C@H](COS(=O)(=O)O)[C@H](OS(=O)(=O)O)[C@H](O[C@@H]3O[C@H](C(=O)O)[C@@H](O[C@@H]4O[C@H](COS(=O)(=O)O)[C@H](OS(=O)(=O)O)[C@H](O[C@@H]5O[C@@H](C(=O)O)[C@@H](OS(=O)(=O)O)[C@H](O)[C@H]5OS(=O)(=O)O)[C@H]4NC(C)=O)[C@H](O)[C@H]3OS(=O)(=O)O)[C@H]2NC(C)=O)cc1 | Midkine | binding to tetrasaccharide | – | – | IC50 | 8 µM
N#Cc1c(C(F)(F)F)cc(-c2ccc(Cl)cc2)nc1SCC(=O)Nc1ncco1 | TAAR1 (Homo sapiens, UniProt Q96RJ0) | antagonist, calcium mobilization | – | – | IC50 | 0.206 µM
COc1ccc(O[C@@H]2O[C@H](COS(=O)(=O)O)[C@H](OS(=O)(=O)O)[C@H](O[C@@H]3O[C@H](C(=O)O)[C@@H](O[C@@H]4O[C@H](COS(=O)(=O)O)[C@H](OS(=O)(=O)O)[C@H](O[C@@H]5O[C@@H](C(=O)O)[C@@H](OS(=O)(=O)O)[C@H](OCc6ccccc6)[C@H]5OS(=O)(=O)O)[C@H]4NC(C)=O)[C@H](OCc4ccccc4)[C@H]3OS(=O)(=O)O)[C@H]2NC(C)=O)cc1 | Midkine | binding to tetrasaccharide | – | – | IC50 | 2.5 µM
Cc1cccc(C)c1NC(=O)C1CCN(Cc2ccccc2)C1 (stereo not shown) | SCN4A (Homo sapiens, UniProt P35499) | sodium current, blocker | – | phasic block, 10 Hz | IC50 | 4.9 ± 0.3 µM

Some of these lines once more:
Structure (SMILES) | tested on | assay | system | conditions | endpoint | result
CC(C)C[C@@H](CN[C@@H](Cc1ccc(Cl)cc1)C(N)=O)NC(=O)[C@H](Cc1c[nH]cn1)NC(=O)CNC(=O)[C@@H](NC(=O)[C@H](C)NC(=O)[C@H](Cc1c[nH]c2ccccc12)NC(=O)[C@H](CCC(N)=O)NC(=O)[C@H](N)Cc1ccccc1)C(C)C | Gastrin-releasing peptide receptor (Rattus norvegicus, UniProt P52500) | binding | – | literature species comparison | IC50 | 0.041 ± 0.005 µM
O=C(CSC(=S)Nc1cccc([N+](=O)[O-])c1)c1cc2ccccc2oc1=O | alpha-glucosidase | – | – | – | IC50 | 102 ± 4.7 µM
O=[N+]([O-])c1ccccc1CO[C@@H](CO)[C@H](O)C[S@@+]1C[C@@H](O)[C@H](O)[C@H]1CO | Si | sucrase activity, inhibitor | rat intestinal disaccharidases | – | IC50 | 0.042 µM
COc1ccc(C2=C(C#N)C(OCC(=O)N/N=C/c3ccccc3)NC(c3nc4ccccc4[nH]3)=C2)cc1 (stereo not shown) | DNA gyrase | enzyme activity | – | – | IC50 | 0.44 µM
